Measured values collected from several papers.
Each numbered part is a random draw from the data of one study; scales do not carry over between parts. Changes are numbered by the printed parent chain.

Set 1 — method: universal PBM; form: double-stranded DNA, one strand shown; sample: in vitro; tested at: not given; reading: higher = stronger binding
Target: Sal-like protein 4, full length isoform B (SALL4, Homo sapiens, UniProt Q9UJQ4-2, residues 1-616)
Notes: 8-mer, flanks averaged, mean of replicates
Oligonucleotide | E-score
AGCTGAGA | -0.0972
AATTGTTC | 0.301
CCTAGGGA | -0.0675
AGGGGTTC | -0.301
ACCTCAGA | -0.286
GTTCTTCA | -0.0526
CAATTTCG | 0.136
GGCCTAAA | -0.0445
AAGAGTTA | 0.0942

Set 2 — method: RNA Bind-n-Seq; form: RNA; sample: in vitro; tested at: 20 nM; notes: 6-mer, flanks averaged, single round; added: 150 mM KCl; reference: input library; reading: higher = stronger binding
Target: TAR DNA-binding protein 43, full length, His tag (TARDBP, Homo sapiens, UniProt Q13148, residues 1-414)
Oligonucleotide | 6-mer enrichment (R)
CUUAGG | 0.866
CAUGUA | 0.7
GGUUGG | 3.22
GUAUAA | 0.749
CAUAUA | 0.594
AAUUGU | 0.662
CUGAUU | 0.572
GUCGCC | 0.849

Set 3 — target: CCNB3, cyclin fold, Cln2 fusion (human); method: yeast growth competition, sequencing; sample: yeast; notes: weak parent motif; reference: not given; reading: higher = stronger binding
Starting sequence: GMNC docking peptide (human); KNAKRNLSSEFAN
Change | normalised enrichment score
S8Y | 0.265
A12W | 0.295
R5F | -0.0769
N2I | 0.331
S9K | 0.509
E10C | -0.0147
K4I | 0.0669
A3S | 0.311
E10V | 0.422
R5P | 0.0891

Single results of other studies
Molecule | target | assay | system | conditions | how to read | quantity | result
PhoQ, residues 284 288 289 292 302 303 TNSAEL | PhoP, residues 12 14 15 18 19 LHSVQ (Escherichia coli, UniProt P23836) | Sort-seq, measured: YFP reporter | E. coli | PhoQ-PhoP variant library, added: 10 µM Mg2+ | reference: high Mg2+ state, higher = stronger signaling | fold induction | 1.05

Repeated from above (set 1):
Oligonucleotide | E-score
AGGGGTTC | -0.301
GGCCTAAA | -0.0445
ACCTCAGA | -0.286
CCTAGGGA | -0.0675
